Measurements from different studies.
“And” joins repeats or separate records; there may be more than shown. ± gives the spread as reported.
ABL2 SH2 domain: Tyrosine-protein kinase ABL2, SH2 domain (ABL2, Homo sapiens, UniProt P42684)
Chain of UniProt P42684 (whole entry, looked up): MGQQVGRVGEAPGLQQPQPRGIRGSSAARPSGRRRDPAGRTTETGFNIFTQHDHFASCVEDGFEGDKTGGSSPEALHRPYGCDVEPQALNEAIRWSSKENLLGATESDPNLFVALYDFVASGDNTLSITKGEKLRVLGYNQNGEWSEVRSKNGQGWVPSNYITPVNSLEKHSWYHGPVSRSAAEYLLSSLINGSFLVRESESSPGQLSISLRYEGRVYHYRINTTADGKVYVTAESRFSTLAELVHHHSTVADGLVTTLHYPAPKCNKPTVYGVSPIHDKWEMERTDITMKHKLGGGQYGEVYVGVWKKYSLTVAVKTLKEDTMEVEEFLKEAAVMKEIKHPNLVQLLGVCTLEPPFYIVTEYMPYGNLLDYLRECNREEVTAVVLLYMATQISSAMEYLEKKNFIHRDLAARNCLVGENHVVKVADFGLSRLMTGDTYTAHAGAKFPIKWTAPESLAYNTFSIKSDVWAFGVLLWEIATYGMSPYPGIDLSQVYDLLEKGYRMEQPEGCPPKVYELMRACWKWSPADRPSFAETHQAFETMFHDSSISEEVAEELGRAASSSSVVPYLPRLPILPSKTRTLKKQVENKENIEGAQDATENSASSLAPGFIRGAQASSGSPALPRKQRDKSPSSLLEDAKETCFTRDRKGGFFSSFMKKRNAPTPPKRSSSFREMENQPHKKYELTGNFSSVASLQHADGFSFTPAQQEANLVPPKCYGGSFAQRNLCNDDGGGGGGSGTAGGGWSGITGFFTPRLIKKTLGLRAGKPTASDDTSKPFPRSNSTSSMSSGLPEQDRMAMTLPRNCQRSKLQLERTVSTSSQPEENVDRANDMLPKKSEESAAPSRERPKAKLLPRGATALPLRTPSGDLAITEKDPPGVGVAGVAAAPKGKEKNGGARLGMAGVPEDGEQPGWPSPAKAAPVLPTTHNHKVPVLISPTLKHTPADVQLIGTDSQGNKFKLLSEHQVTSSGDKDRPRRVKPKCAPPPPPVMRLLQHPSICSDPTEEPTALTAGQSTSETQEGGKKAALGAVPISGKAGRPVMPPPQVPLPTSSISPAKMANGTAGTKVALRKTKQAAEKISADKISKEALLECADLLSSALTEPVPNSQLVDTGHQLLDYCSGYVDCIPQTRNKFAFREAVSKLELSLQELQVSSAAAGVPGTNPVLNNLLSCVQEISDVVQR
nuc: Thermonuclease (nuc, Staphylococcus aureus, UniProt P00644)
Chain of UniProt P45983 (whole entry, looked up): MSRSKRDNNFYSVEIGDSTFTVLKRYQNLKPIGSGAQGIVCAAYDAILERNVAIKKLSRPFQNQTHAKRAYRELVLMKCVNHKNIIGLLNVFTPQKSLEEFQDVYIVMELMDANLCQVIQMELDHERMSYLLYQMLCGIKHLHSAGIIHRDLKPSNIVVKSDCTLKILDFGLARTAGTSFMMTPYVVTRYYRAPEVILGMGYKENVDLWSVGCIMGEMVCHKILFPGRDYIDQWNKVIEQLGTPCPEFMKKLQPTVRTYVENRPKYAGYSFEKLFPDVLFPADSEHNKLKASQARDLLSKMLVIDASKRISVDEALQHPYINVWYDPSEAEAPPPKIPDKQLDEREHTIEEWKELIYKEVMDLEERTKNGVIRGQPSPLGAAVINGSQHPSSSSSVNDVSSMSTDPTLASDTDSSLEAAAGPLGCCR
Chain of UniProt Q9Y2K6 (whole entry, looked up): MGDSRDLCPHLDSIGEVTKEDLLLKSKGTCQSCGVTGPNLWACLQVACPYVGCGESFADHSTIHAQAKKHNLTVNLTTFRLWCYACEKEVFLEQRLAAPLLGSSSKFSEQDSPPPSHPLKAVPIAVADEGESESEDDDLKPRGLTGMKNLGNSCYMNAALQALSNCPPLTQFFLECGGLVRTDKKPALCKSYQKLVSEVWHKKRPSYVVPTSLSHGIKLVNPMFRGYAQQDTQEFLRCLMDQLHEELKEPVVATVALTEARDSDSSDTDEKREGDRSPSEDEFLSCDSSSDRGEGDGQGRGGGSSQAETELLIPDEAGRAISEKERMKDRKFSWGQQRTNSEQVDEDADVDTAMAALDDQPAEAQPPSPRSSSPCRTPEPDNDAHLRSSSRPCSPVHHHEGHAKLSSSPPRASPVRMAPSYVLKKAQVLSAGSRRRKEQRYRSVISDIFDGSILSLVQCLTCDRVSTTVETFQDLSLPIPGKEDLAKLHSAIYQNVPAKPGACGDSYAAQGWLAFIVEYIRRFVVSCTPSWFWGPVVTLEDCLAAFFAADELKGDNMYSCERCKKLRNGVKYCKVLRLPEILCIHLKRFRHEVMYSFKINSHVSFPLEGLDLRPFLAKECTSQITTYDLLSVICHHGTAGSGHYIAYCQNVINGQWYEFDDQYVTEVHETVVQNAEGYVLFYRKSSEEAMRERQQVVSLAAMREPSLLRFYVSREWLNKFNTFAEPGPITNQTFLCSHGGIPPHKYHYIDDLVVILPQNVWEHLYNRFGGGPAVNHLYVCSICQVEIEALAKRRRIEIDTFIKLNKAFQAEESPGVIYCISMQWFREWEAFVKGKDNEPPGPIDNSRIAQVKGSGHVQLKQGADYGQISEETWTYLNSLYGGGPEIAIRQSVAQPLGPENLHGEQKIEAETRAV
Chain of UniProt P05108 (whole entry, looked up): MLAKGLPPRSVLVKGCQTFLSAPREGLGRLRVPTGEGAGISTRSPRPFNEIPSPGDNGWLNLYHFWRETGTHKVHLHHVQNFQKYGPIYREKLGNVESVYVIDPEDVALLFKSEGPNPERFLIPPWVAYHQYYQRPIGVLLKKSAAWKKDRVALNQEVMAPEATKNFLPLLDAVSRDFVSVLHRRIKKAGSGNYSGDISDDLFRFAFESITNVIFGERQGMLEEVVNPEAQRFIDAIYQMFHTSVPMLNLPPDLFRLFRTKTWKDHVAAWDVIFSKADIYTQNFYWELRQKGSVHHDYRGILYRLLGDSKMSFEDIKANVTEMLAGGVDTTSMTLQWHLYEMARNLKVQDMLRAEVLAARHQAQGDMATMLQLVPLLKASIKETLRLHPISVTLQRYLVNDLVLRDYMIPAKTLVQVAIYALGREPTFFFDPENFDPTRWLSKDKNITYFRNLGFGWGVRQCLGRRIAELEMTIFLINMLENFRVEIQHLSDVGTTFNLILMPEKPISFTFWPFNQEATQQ
Chain of UniProt Q16620 (whole entry, looked up): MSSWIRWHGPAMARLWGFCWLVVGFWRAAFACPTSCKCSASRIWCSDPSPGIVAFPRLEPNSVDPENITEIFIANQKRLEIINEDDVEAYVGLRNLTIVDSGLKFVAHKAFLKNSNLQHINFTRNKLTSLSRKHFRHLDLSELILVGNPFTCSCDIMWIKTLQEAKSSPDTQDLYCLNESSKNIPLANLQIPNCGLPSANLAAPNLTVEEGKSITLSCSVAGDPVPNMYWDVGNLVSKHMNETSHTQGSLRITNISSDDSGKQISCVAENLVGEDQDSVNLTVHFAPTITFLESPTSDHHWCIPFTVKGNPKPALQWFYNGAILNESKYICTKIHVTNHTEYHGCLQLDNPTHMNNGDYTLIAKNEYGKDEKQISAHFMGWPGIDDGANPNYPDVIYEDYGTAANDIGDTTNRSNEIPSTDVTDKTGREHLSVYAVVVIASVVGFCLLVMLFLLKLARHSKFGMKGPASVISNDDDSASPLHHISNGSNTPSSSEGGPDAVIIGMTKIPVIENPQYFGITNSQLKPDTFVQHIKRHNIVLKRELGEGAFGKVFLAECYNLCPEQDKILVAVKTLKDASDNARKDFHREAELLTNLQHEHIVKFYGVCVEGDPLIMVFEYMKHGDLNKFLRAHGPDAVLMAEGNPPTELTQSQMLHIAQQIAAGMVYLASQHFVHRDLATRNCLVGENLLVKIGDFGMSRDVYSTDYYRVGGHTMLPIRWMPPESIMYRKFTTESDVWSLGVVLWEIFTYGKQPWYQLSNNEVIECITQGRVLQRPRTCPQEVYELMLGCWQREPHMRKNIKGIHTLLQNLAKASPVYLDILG
Chain of UniProt Q16548 (whole entry, looked up): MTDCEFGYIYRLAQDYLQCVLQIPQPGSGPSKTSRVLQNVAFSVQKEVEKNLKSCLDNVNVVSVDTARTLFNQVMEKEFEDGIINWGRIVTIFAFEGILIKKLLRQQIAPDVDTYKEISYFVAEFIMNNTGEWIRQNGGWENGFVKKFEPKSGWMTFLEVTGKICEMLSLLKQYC
Chain of UniProt P78368 (whole entry, looked up): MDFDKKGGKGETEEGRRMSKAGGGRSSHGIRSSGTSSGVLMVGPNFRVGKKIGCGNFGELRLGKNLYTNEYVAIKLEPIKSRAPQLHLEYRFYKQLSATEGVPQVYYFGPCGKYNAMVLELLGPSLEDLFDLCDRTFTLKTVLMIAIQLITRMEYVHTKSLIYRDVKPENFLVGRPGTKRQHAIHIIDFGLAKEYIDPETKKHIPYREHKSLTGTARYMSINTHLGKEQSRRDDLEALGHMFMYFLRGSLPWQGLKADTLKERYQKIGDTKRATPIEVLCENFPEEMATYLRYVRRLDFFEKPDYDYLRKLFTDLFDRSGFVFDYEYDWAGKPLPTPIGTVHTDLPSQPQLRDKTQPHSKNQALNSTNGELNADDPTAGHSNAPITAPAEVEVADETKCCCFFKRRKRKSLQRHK
Chain of UniProt Q9UNU6 (whole entry, looked up): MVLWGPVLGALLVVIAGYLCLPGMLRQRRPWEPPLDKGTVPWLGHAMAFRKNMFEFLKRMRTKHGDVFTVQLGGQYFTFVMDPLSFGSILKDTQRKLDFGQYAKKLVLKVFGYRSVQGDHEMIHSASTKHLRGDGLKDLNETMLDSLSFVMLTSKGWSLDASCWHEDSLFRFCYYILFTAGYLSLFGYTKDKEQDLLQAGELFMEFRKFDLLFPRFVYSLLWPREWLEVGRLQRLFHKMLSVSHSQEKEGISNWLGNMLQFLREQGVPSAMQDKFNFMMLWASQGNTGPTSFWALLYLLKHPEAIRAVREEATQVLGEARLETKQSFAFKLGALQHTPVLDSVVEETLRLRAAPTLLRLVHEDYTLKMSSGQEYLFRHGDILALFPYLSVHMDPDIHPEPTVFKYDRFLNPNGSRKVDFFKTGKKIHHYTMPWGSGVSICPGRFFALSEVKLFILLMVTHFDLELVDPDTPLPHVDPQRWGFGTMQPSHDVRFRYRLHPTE

Structure (SMILES)	target	assay	system	conditions	Kd
CCN(CC)c1ccc2c(-c3ccccc3C(=O)O)c3ccc(=[N+](CC)CC)cc-3oc2c1	Phenylalanine-4-hydroxylase (phhA, Chromobacterium violaceum, UniProt P30967, F107L/P134L/W180A/Y130S/Y179W)				89 µM
CCCC(=O)CC(=O)N[C@H]1CCOC1=O	qscR, DNA-bound (Pseudomonas aeruginosa, UniProt G3XD77)	DNA binding, ligand, EMSA		4 °C, saturating ligand	0.007 µM and 0.00708 µM
CC[C@H](C)[C@H](NC(=O)CNC(=O)[C@H](CC(=O)O)NC(=O)[C@H](Cc1ccc(OP(=O)(O)O)cc1)NC(=O)[C@@H]1CCCN1C(=O)[C@H](CCCCN)NC(=O)[C@H](CO)NC(=O)CNC(=O)[C@H](Cc1ccccc1)NC(=O)[C@@H](NC(=O)[C@H](CCSC)NC(=O)[C@H](CC(C)C)NC(=O)[C@H](CCC(=O)O)NC(=O)c1ccc2c(c1)C(=O)OC21c2ccc(N(C)C)cc2Oc2cc(N(C)C)ccc21)[C@@H](C)O)C(=O)N1CCC[C@H]1C(=O)N[C@@H](C)C(=O)N[C@@H](CO)C(=O)N[C@@H](CCC(=O)O)C(=O)N[C@@H](CC(=O)O)C(=O)O	ABL2 SH2 domain	binding			0.177 µM
CC(=O)N[C@H]1[C@@H](OC[C@H]2O[C@@H](O)[C@H](O)[C@@H](O)[C@H]2O)O[C@H](CO)[C@H](O)[C@@H]1O	Vicia villosa lectin	glycan microarray		4 glycans per BSA	0.188 ± 0.03 µM
CSCC[C@H](NC(=O)[C@H](CC(C)C)NC(=O)[C@H](C)NC(=O)[C@H](CCCNC(=N)N)NC(=O)[C@H](Cc1ccc(OP(=O)(O)O)cc1)NC(=O)[C@H](Cc1ccccc1)NC(=O)[C@H](CC(N)=O)NC(=O)[C@H](CO)NC(=O)[C@H](CC(=O)O)NC(=O)[C@@H](NC(=O)[C@@H]1CCCN1C(=O)[C@H](CO)NC(=O)[C@@H]1CCCN1C(=O)[C@H](CC(C)C)NC(=O)c1ccc2c(c1)C(=O)OC21c2ccc(N(C)C)cc2Oc2cc(N(C)C)ccc21)[C@@H](C)O)C(=O)N[C@@H](CC(=O)O)C(=O)N[C@@H](CCC(=O)O)C(=O)N[C@@H](CCC(=O)O)C(=O)N[C@@H](CC(=O)O)C(=O)O	Tyrosine-protein kinase ITK/TSK, SH2 domain (ITK, Homo sapiens, UniProt Q08881)	binding			0.277 µM
Nc1ncnc2c1ncn2[C@@H]1O[C@H](COP(=O)(O)O)[C@@H](O)[C@H]1O	nuc	binding, ligand-coupled folding kinetics		pH 7.0, 22 °C, 2.7 M urea	1300 µM
O=C(Nc1nncs1)C(F)(F)I	MAPK8 (Homo sapiens, UniProt P45983)	binding, isothermal titration calorimetry		pH 7.4	87.7 µM and 121 µM
COc1cc(O)cc(/C=C/c2ccc(O)cc2)c1	O-methyltransferase (Sorghum bicolor, UniProt A0A1B6PFV1)	ITC		25 °C, apo enzyme	1.9 ± 0.209 µM
Nc1nc2c(ncn2[C@@H]2O[C@H](COP(=O)(O)OP(=O)(O)OP(=O)(O)O)[C@@H](O)[C@H]2O)c(=O)[nH]1	GTP 3',8-cyclase (moaA, Staphylococcus aureus, UniProt P69848, R17A)	binding, isothermal titration calorimetry		25 °C, R17A mutant, anaerobic	0.38 ± 0.2 µM
O=c1c(O)c(-c2ccc(O)c(O)c2)oc2cc(O)cc(O)c12	NTRK2 (Homo sapiens, UniProt Q16620)	binding, tryptophan fluorescence quenching		extracellular domain	0.0053 ± 0.0019 µM
CC(C)C[C@H](NC(=O)[C@H](CC(C)C)NC(=O)[C@H](CCCCN)NC(=O)c1ccc2c(c1)C(=O)OC21c2ccc(N(C)C)cc2Oc2cc(N(C)C)ccc21)C(=O)NCC(=O)N[C@@H](C)C(=O)N[C@@H](CCC(=O)O)C(=O)N[C@@H](CCC(=O)O)C(=O)N[C@@H](CCCCN)C(=O)N[C@@H](CCC(=O)O)C(=O)N[C@@H](Cc1ccc(OP(=O)(O)O)cc1)C(=O)N[C@@H](Cc1c[nH]cn1)C(=O)N[C@@H](C)C(=O)N[C@@H](CCC(=O)O)C(=O)NCC(=O)NCC(=O)N[C@@H](CCCCN)C(=O)N[C@H](C(=O)N[C@@H](CC(=O)O)C(=O)O)C(C)C	ABL2 SH2 domain	binding			1.08 µM
CC[C@H](C)[C@H](NC(=O)[C@H](CNC(=O)CCl)NC(C)=O)C(=O)N[C@@H](C)C(=O)N[C@@H](CCC(N)=O)C(=O)N[C@@H](CCC(=O)O)C(=O)N[C@@H](CC(C)C)C(=O)N[C@@H](CCCNC(=N)N)C(=O)N[C@@]1(C)CCC/C=C\CCC[C@@](C)(C(=O)N[C@@H](Cc2ccccc2)C(=O)N[C@@H](CC(N)=O)C(=O)N[C@@H](C)C(=O)N[C@@H](Cc2ccc(O)cc2)C(=O)N[C@@H](Cc2ccc(O)cc2)C(=O)N[C@@H](C)C(=O)N[C@@H](CCCNC(=N)N)C(=O)N[C@@H](CCCNC(=N)N)C(N)=O)NC(=O)[C@H](CC(=O)O)NC(=O)CNC(=O)[C@H]([C@@H](C)CC)NC1=O	Bcl-2-related protein A1 (Homo sapiens, UniProt Q16548)	isothermal titration calorimetry		25 °C, 10% DMSO	no binding
C[C@H](NC(=O)[C@@H](NC(=O)[C@H](CO)NC(=O)[C@H](Cc1c[nH]cn1)NC(=O)[C@@H]1CCCN1C(=O)[C@H](CC(=O)O)NC(=O)[C@H](CCC(N)=O)NC(=O)[C@H](Cc1ccc(OP(=O)(O)O)cc1)NC(=O)[C@H](Cc1c[nH]cn1)NC(=O)[C@@H]1CCCN1C(=O)[C@H](CC(=O)O)NC(=O)[C@H](CCCNC(=N)N)NC(=O)[C@H](CO)NC(=O)[C@@H]1CCCN1C(=O)[C@H](C)NC(=O)[C@@H]1CCCN1C(=O)[C@H](CC(N)=O)NC(=O)c1ccc2c(c1)C(=O)OC21c2ccc(N(C)C)cc2Oc2cc(N(C)C)ccc21)[C@@H](C)O)C(=O)N[C@@H](CC(=O)O)C(=O)O	Tensin-1, SH2 domain (TNS1, Homo sapiens, UniProt Q9HBL0)	binding			1.28 µM
CC[C@H](CO)Nc1nc(NCc2ccc(-c3ccccn3)cc2)c2ncn(C(C)C)c2n1	CSNK1G2 (Homo sapiens, UniProt P78368)	competition affinity chromatography	SH-SY5Y cell extract		14.1 µM
CC[C@H](C)[C@H](NC(=O)[C@H](Cc1ccc(OP(=O)(O)O)cc1)NC(=O)[C@H](CCC(=O)O)NC(=O)[C@@H]1CCCN1C(=O)[C@@H](NC(=O)[C@@H]1CCCN1C(=O)[C@H](CC(C)C)NC(=O)[C@H](Cc1ccccc1)NC(=O)[C@@H](NC(=O)[C@H](CC(=O)O)NC(=O)[C@H](CC(=O)O)NC(=O)c1ccc2c(c1)C(=O)OC21c2ccc(N(C)C)cc2Oc2cc(N(C)C)ccc21)[C@@H](C)O)C(C)C)C(=O)N[C@@H](CC(N)=O)C(=O)N[C@@H](CCC(N)=O)C(=O)N[C@@H](CO)C(=O)N[C@H](C(=O)N1CCC[C@H]1C(=O)N[C@@H](CCCCN)C(=O)N[C@@H](CC(=O)O)C(=O)O)C(C)C	Guanine nucleotide exchange factor VAV2, SH2 domain (VAV2, Homo sapiens, UniProt P52735)	binding			0.542 µM
C[C@H](N)C(=O)O	tnaA (Proteus vulgaris, UniProt P28796)				17100 ± 400 µM
N=C(N)NCCC[C@H](N)C(=O)O	uncharacterized protein (Pelagibacter ubique, UniProt Q4FLC2)	binding, competition ITC			3.5e-05 ± 1.2e-05 µM
CC(=O)N[C@H]1[C@@H](OC[C@H](NC(=O)[C@H](CO)NC(C)=O)C(=O)N[C@@H](CO)C(=O)NCC(=O)O)O[C@H](CO)[C@H](O)[C@@H]1O	Helix pomatia agglutinin	glycan microarray		4 glycans per BSA	0.0019 ± 0.0005 µM
Nc1ncnc2c1ncn2[C@@H]1O[C@H](CO)[C@@H](OP(=O)(O)O)[C@H]1O	nuc	binding, ligand-coupled folding kinetics		pH 7.0, 22 °C, 2.7 M urea	5000 µM
CC(=O)N[C@H]1[C@@H](O[C@H](C)[C@H](NC(C)=O)C(=O)N[C@H](C(=O)N[C@H](C(=O)NCC(=O)O)[C@@H](C)O[C@H]2O[C@H](CO)[C@H](O)[C@H](O)[C@H]2NC(C)=O)[C@@H](C)O[C@H]2O[C@H](CO)[C@H](O)[C@H](O)[C@H]2NC(C)=O)O[C@H](CO)[C@H](O)[C@@H]1O	Helix pomatia agglutinin	glycan microarray		20 glycans per BSA	0.0004 ± 0.0001 µM
CCCC1COC(Cn2cncn2)(c2ccc(Cl)cc2Cl)O1 (stereo not drawn)	7-alpha-hydroxycholest-4-en-3-one 12-alpha-hydroxylase (Homo sapiens, UniProt Q9UNU6)	binding		20 min, pH 7.4	64.2 µM
CC(=O)N[C@H]1[C@@H](O[C@H](C)[C@H](NC(=O)[C@H](CO)NC(C)=O)C(=O)N[C@@H](CO)C(=O)NCC(=O)O)O[C@H](CO)[C@H](O)[C@@H]1O	Vicia villosa lectin	glycan microarray		4 glycans per BSA	0.012 ± 0.003 µM
CSCC[C@H](NC(=O)[C@H](CC(=O)O)NC(=O)c1ccc2c(c1)C(=O)OC21c2ccc(N(C)C)cc2Oc2cc(N(C)C)ccc21)C(=O)N[C@@H](CO)C(=O)N[C@@H](CCCCN)C(=O)N[C@@H](CC(=O)O)C(=O)N[C@@H](CCC(=O)O)C(=O)N[C@@H](CO)C(=O)N[C@H](C(=O)N[C@@H](CC(=O)O)C(=O)N[C@@H](Cc1ccc(OP(=O)(O)O)cc1)C(=O)N[C@H](C(=O)N1CCC[C@H]1C(=O)N[C@@H](CCSC)C(=O)N[C@@H](CC(C)C)C(=O)N[C@@H](CC(=O)O)C(=O)N[C@@H](CCSC)C(=O)N[C@@H](CCCCN)C(=O)N[C@@H](CC(=O)O)C(=O)O)C(C)C)C(C)C	Breast cancer anti-estrogen resistance protein 3, SH2 domain (BCAR3, Homo sapiens, UniProt O75815)	binding			0.701 µM
CC(C)CC[C@@H](O)[C@@H](C)[C@H]1CC[C@H]2[C@@H]3CC=C4C[C@@H](O)CC[C@]4(C)[C@H]3CC[C@]12C	CYP11A1 (Homo sapiens, UniProt P05108)	substrate binding		together with: adrenodoxin 40-fold excess	0.078 µM
CC(C)C[C@H](NC(=O)[C@H](Cc1ccc(OP(=O)(O)O)cc1)NC(=O)[C@H](CCC(=O)O)NC(=O)[C@H](C)NC(=O)[C@H](CC(N)=O)NC(=O)[C@H](CCC(=O)O)NC(=O)[C@H](C)NC(=O)[C@@H](NC(=O)[C@H](CO)NC(=O)CNC(=O)[C@H](CCCCN)NC(=O)c1ccc2c(c1)C(=O)OC21c2ccc(N(C)C)cc2Oc2cc(N(C)C)ccc21)[C@@H](C)O)C(=O)N[C@@H](CCCNC(=N)N)C(=O)N[C@H](C(=O)N[C@@H](C)C(=O)N1CCC[C@H]1C(=O)N[C@@H](CCC(N)=O)C(=O)N[C@@H](CO)C(=O)N[C@@H](CC(=O)O)C(=O)O)C(C)C	ABL2 SH2 domain	binding			0.214 µM
CCCCCCCCCC(=O)NC1CCCC1	qscR, ligand-binding domain (Pseudomonas aeruginosa, UniProt G3XD77)	ligand binding, FRET displacement		ligand-binding domain	0.0648 µM
O=C(O)CCCN1CC=C(c2ccccc2)CC1	Ubiquitin carboxyl-terminal hydrolase 20, ZnF-UBD domain (USP20, Homo sapiens, UniProt Q9Y2K6)				380 µM
